Experimental data of several laboratories.
Protocols differ between the studies behind these lines. ± marks the error that the study gave.
Chain of UniProt P14061 (whole entry, looked up): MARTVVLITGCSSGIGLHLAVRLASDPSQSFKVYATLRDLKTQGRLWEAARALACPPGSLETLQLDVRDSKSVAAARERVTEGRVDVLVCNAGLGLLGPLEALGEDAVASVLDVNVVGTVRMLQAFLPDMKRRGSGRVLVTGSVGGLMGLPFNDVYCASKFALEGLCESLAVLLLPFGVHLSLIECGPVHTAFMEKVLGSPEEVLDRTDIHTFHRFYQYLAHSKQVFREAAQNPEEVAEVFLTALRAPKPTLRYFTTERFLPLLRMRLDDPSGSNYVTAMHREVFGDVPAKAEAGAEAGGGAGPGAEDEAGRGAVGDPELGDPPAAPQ
Chain of UniProt Q04760 (whole entry, looked up): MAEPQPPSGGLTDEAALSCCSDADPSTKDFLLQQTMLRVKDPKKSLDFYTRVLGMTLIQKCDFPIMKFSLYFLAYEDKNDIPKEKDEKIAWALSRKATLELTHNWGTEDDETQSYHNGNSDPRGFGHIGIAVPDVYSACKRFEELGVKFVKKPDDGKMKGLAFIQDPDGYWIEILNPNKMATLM
Chain of UniProt O15294 (whole entry, looked up): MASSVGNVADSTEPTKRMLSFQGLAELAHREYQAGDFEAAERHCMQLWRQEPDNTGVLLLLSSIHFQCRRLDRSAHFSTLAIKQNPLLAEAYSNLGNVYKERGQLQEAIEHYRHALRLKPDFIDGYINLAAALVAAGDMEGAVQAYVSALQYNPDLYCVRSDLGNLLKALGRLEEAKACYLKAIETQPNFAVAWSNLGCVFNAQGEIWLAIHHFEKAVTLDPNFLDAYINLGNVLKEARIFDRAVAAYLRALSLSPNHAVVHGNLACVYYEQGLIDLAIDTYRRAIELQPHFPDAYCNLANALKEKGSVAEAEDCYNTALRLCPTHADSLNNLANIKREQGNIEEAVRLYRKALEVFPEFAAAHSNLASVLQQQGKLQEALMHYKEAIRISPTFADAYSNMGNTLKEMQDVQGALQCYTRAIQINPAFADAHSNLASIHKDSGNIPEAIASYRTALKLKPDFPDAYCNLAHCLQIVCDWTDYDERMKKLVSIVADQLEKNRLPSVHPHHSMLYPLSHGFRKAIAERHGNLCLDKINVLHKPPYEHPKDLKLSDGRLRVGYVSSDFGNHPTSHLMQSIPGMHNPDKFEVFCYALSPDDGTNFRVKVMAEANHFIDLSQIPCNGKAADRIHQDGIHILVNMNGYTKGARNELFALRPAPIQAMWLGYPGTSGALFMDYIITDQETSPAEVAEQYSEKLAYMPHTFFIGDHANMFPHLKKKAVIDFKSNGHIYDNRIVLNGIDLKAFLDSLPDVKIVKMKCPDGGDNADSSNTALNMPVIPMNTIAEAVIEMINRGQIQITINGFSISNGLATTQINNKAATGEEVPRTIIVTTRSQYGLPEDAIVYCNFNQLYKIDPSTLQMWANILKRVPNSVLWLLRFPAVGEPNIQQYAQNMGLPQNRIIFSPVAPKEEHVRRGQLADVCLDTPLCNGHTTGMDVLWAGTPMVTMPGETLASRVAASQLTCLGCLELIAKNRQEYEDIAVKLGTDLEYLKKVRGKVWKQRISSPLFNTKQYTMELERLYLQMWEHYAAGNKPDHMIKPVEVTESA
Chain of UniProt P54132 (whole entry, looked up): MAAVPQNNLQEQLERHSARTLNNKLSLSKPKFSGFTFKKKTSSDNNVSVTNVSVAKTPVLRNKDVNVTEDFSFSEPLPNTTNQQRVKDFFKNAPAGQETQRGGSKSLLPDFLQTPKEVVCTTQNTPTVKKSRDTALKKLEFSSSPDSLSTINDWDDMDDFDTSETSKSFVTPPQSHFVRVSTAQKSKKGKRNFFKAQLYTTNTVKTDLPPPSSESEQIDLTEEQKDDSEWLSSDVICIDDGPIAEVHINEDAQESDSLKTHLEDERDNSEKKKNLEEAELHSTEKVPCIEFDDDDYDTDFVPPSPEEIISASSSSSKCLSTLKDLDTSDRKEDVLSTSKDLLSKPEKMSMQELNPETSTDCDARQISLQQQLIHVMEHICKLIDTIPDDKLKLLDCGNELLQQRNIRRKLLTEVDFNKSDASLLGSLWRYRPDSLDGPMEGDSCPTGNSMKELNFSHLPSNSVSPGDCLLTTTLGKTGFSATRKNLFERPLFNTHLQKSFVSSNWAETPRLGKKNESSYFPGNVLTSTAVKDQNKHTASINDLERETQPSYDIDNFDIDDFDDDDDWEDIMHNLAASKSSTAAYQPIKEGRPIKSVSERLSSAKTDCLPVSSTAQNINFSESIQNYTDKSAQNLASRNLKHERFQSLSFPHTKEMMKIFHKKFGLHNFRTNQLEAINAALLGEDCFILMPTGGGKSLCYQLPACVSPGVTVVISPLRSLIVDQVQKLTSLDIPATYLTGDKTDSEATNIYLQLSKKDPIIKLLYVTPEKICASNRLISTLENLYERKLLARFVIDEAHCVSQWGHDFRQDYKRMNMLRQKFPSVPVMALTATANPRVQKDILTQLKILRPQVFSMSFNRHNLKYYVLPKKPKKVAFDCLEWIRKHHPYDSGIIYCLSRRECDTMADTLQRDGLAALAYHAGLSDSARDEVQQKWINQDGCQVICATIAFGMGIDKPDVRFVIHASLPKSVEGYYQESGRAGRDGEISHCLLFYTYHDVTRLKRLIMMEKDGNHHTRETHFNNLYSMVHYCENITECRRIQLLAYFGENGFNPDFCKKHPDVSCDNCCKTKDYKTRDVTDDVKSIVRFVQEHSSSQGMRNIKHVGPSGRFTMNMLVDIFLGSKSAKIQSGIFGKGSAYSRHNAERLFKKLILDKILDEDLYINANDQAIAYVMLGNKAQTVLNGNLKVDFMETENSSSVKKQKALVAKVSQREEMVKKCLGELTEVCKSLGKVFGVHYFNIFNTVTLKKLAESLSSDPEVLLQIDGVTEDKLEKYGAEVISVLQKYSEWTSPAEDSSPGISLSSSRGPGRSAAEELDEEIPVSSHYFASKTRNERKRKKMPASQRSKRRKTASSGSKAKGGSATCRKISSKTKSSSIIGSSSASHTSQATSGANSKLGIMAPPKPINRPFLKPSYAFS
Chain of UniProt P28062 (whole entry, looked up): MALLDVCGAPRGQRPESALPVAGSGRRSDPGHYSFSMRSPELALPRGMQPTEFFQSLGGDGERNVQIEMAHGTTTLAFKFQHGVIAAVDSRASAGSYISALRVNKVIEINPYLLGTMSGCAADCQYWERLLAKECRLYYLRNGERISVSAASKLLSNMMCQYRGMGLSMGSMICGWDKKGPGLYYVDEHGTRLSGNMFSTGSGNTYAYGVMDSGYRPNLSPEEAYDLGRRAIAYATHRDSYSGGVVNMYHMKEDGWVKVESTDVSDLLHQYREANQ
Chain of UniProt P47713 (whole entry, looked up): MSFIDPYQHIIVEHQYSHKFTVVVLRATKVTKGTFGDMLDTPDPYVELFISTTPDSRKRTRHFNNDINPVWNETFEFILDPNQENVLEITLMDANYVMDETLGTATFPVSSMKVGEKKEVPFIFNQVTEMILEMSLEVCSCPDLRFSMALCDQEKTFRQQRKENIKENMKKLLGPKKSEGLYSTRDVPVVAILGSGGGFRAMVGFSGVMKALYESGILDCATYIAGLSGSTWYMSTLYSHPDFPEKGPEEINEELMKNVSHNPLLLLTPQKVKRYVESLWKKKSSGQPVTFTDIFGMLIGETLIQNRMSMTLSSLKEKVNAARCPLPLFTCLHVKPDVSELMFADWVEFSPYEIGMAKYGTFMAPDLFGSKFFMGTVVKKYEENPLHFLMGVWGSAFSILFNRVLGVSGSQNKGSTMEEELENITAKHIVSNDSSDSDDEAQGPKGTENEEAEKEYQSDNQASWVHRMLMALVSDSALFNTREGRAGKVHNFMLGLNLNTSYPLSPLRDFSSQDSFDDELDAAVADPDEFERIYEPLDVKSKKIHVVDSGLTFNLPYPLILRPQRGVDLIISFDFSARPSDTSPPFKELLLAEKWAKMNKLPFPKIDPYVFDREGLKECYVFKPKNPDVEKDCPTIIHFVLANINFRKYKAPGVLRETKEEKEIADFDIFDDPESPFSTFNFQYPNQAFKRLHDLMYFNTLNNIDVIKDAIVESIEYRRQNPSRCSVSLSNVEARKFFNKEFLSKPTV
Chain of UniProt P20618 (whole entry, looked up): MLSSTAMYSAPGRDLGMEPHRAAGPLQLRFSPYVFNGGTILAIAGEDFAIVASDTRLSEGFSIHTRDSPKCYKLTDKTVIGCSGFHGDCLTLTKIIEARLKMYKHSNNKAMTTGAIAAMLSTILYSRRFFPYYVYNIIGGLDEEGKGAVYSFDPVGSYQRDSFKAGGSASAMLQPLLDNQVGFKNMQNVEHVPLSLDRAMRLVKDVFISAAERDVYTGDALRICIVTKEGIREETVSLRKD
Chain of UniProt Q08499 (whole entry, looked up): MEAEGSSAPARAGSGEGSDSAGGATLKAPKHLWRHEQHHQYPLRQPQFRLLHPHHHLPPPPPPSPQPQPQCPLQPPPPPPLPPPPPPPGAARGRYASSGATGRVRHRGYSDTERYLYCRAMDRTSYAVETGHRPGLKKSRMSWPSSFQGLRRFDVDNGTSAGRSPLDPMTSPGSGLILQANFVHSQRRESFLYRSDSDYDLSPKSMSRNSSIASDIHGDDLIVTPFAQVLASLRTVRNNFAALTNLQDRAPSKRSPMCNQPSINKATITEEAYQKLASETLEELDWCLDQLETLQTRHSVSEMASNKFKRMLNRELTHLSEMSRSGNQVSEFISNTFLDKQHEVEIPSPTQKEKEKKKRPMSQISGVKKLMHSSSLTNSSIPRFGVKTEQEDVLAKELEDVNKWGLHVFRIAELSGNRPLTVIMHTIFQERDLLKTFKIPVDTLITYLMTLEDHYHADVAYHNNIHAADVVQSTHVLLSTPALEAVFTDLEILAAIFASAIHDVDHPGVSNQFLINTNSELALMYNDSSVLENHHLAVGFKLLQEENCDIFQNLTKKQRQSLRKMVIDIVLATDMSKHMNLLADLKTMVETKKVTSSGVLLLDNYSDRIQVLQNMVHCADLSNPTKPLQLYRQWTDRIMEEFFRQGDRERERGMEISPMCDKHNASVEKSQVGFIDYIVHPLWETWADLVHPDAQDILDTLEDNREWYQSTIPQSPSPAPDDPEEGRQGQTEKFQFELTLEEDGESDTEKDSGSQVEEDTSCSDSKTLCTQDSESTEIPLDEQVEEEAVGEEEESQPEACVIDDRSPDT

With Cc1ccc2c(c1C#Cc1ccc(O)cc1)C(c1ccc(O)cc1)(c1ccc(O)cc1)c1cc(O)ccc1-2 the IC50 was 0.11 µM (PDE4D (Homo sapiens, UniProt Q08499); enzyme activity, inhibitor, fluorescence).
With CC(C)NC(=O)[C@H](CCc1ccccc1)NC(=O)[C@H](CC(=O)NCC(C)(C)C)NC(=O)CCc1ccccc1 the IC50 was 0.2 µM (Proteasome component C5/PSMB8 (Homo sapiens, UniProt P20618+P28062); inhibitor).
For O=C(O)C1CC(=O)N(CCC23CC4CC(CC(C4)C2)C3)C(=Nc2ccc(Cl)cc2)S1 (centres unmarked), the IC50 was 19.7 µM (OGT (Homo sapiens, UniProt O15294); enzyme activity, inhibitor; together with: UDP-GlcNAz, Nup62 substrate).
CC[C@H](C)[C@H](NC(=O)[C@H](CCCNC(=N)N)NC(=O)[C@H](CC(N)=O)NC(=O)[C@H](C)NC(=O)[C@H](Cc1c[nH]cn1)NC(=O)[C@@H](NC(=O)[C@H](CCC(N)=O)NC(=O)[C@@H]1CCCN1C(=O)[C@@H](N)CC(=O)O)[C@@H](C)O)C(=O)N[C@@H](Cc1ccc(O)cc1)C(=O)N[C@@H](CCCNC(=N)N)C(=O)N[C@@H](CCSC)C(=O)N[C@H](C(=O)N[C@@H](CCCCN)C(=O)N[C@@H](CC(C)C)C(=O)N[C@@H](Cc1c[nH]c2ccccc12)C(=O)N[C@@H](CC(C)C)C(=O)NCC(=O)O)[C@@H](C)CC has an IC50 of 38 ± 2.2 µM (Hsp90; luciferase refolding, inhibitor; rabbit reticulocyte lysate; together with: heat-denatured luciferase).
C=C(NC(=O)C(=C)NC(=O)c1csc(C2=NC3c4csc(n4)C4NC(=O)c5csc(n5)C(C(C)(O)C(C)O)NC(=O)C5CSC(=N5)C(=CC)NC(=O)C(C(C)O)NC(=O)c5csc(n5)C3(CC2)NC(=O)C(C)NC(=O)C(=C)NC(=O)C(Cc2ccc(O)cc2)NC(=O)C(C(C)CC)NC2C=Cc3c(C(C)O)cc(nc3C2O)C(=O)OC4C)n1)C(N)=O (centres unmarked) gave an IC50 of > 0.92 µM (PSMB5 (Homo sapiens, UniProt P28074); chymotrypsin-like activity, inhibitor; purified human 20S proteasome; 37 °C, 15 min preincubation, together with: Suc-Leu-Leu-Val-Tyr-AMC).
The IC50 of COc1cc(-c2nc3ccc(C(=O)NCCCN4CCN(c5ccccn5)CC4)cc3n2C2CCC2)cc(OC)c1OC is reported as > 30 µM (ACVRL1 (Homo sapiens, UniProt P37023); target engagement in cells, BRET).
With COC(=O)N[C@H]1CC[C@@H](Nc2cc(NCc3ccccc3F)n3ncc(C(C)C)c3n2)CC1 the IC50 was 0.44 µM (Cyclin-dependent kinase 9, with cyclin T (CDK9, Homo sapiens, UniProt P50750); enzyme activity, inhibitor, luciferase kinase).
CO[C@@H](C[C@H]1C(C)=CC[C@@H]2[C@]3(C)C[C@H](O[C@@H]4O[C@@H](C)[C@H](O)[C@@H](O)[C@H]4O)[C@@H](O)C(C)(C)[C@H]3CC[C@]21C)[C@H](N)C(=O)O gave an IC50 of 0.08 µM (SLC7A5 (Homo sapiens, UniProt Q01650); transporter uptake).
With CCC(=O)N(C)c1ccc(Cl)c(Cl)c1 the IC50 was > 25 µM (Cytochrome P450 2C8 (CYP2C8, Homo sapiens, UniProt P10632); enzyme activity, inhibitor; human, liver microsomes; 10 min).
COc1ccc2c(c1)CC[C@H]1[C@@H]3[C@H](OCC(=O)N(C)C4CCCCC4)CC(=O)[C@@]3(C)CC[C@H]21 has an IC50 of 5.6 to 7 µM (HSD17B1 (Homo sapiens, UniProt P14061); enzyme activity, inhibitor, radiometric).
For COc1ccc(-c2cc(C(F)(F)F)nc(S(=O)(=O)NCC(=O)Nc3ccc(C)cc3)n2)cc1, the IC50 was > 50 µM (BLM (Homo sapiens, UniProt P54132); enzyme activity, inhibitor, ADP detection).
For Nc1ccc(/N=N/c2ccc(S(N)(=O)=O)cc2)c2ccc(O)cc12, the IC50 was 23 µM (GLO1 (Homo sapiens, UniProt Q04760); enzyme activity, inhibitor).
O=C1CCc2ccc(NS(=O)(=O)c3cccc(Oc4ccccc4)c3)cc2N1 gave an IC50 of 0.00088 µM (Cytosolic phospholipase A2 (Mus musculus, UniProt P47713); arachidonic acid release; BV-2; together with: A23187).
CC(C)(C)NCCCNC(=O)c1ccnc(Br)c1 has an IC50 of > 100 µM (TP53-binding protein 1 (Homo sapiens, UniProt Q12888); methyl-lysine reader binding, inhibitor, AlphaScreen).

For quick reference, copied from above:
With CC(C)NC(=O)[C@H](CCc1ccccc1)NC(=O)[C@H](CC(=O)NCC(C)(C)C)NC(=O)CCc1ccccc1 the IC50 was 0.2 µM (Proteasome component C5/PSMB8 (Homo sapiens, UniProt P20618+P28062); inhibitor).
CC(C)(C)NCCCNC(=O)c1ccnc(Br)c1 has an IC50 of > 100 µM (TP53-binding protein 1 (Homo sapiens, UniProt Q12888); methyl-lysine reader binding, inhibitor, AlphaScreen).
